Experimental data from different studies.
Numbered parts are unrelated; each lists some results of a single study.

Block 1 — technique: aptamer microarray, sandwich; form: DNA with 2'F-ANA; medium: in vitro; tested at: 200 nM; with: Cy3 exosite-II aptamer, 400 nM; direction: higher = stronger binding; sequence: GGTTGGTGTGGTTGG
Target: Prothrombin, mature alpha-thrombin (F2, Homo sapiens, UniProt P00734)
Setting: whole 15-mer aptamer, many near background
Modification | mean fluorescence intensity
2'F-ANA at 1 2 3 6 7 8 9 | 252 a.u.
2'F-ANA at 1 9 11 14 | 53.1 a.u.
2'F-ANA at 1 2 8 10 11 13 15 | 63.3 a.u.
2'F-ANA at 2 4 5 6 10 11 14 15 | 102 a.u.
2'F-ANA at 1 2 4 5 7 8 12 13 14 | 68 a.u.
2'F-ANA at 2 5 6 8 9 13 | 56.9 a.u.
2'F-ANA at 1 2 4 5 8 9 10 13 14 | 62.6 a.u.
2'F-ANA at 1 4 6 7 12 14 | 55.2 a.u.
2'F-ANA at 1 2 5 6 7 8 9 10 13 15 | 76.5 a.u.
2'F-ANA at 1 2 3 4 7 8 9 10 11 13 14 | 54.2 a.u.
2'F-ANA at 1 4 5 9 10 12 13 15 | 60.8 a.u.
2'F-ANA at 1 8 12 | 409 a.u.
2'F-ANA at 1 4 7 8 9 12 | 331 a.u.
2'F-ANA at 2 3 5 8 10 14 | 49.9 a.u.
2'F-ANA at 1 4 5 8 10 12 14 15 | 44 a.u.
2'F-ANA at 1 3 5 6 8 13 | 53 a.u.
2'F-ANA at 1 2 6 8 9 10 11 | 53.6 a.u.
2'F-ANA at 2 4 5 7 8 9 11 12 | 139 a.u.
2'F-ANA at 1 2 4 5 6 7 8 10 11 12 15 | 50.9 a.u.
2'F-ANA at 1 2 5 6 11 13 | 99.8 a.u.
2'F-ANA at 1 2 3 5 6 7 9 13 14 | 50.3 a.u.
2'F-ANA at 3 4 6 8 9 10 11 12 13 | 195 a.u.

Block 2 — technique: universal PBM; form: double-stranded DNA, one strand shown; medium: in vitro; tested at: 600 nM; direction: higher = stronger binding
Target: Sal-like protein 4, full length isoform A (SALL4, Homo sapiens, UniProt Q9UJQ4, residues 1-1053)
UniProt Q9UJQ4, sequence (whole entry, looked up): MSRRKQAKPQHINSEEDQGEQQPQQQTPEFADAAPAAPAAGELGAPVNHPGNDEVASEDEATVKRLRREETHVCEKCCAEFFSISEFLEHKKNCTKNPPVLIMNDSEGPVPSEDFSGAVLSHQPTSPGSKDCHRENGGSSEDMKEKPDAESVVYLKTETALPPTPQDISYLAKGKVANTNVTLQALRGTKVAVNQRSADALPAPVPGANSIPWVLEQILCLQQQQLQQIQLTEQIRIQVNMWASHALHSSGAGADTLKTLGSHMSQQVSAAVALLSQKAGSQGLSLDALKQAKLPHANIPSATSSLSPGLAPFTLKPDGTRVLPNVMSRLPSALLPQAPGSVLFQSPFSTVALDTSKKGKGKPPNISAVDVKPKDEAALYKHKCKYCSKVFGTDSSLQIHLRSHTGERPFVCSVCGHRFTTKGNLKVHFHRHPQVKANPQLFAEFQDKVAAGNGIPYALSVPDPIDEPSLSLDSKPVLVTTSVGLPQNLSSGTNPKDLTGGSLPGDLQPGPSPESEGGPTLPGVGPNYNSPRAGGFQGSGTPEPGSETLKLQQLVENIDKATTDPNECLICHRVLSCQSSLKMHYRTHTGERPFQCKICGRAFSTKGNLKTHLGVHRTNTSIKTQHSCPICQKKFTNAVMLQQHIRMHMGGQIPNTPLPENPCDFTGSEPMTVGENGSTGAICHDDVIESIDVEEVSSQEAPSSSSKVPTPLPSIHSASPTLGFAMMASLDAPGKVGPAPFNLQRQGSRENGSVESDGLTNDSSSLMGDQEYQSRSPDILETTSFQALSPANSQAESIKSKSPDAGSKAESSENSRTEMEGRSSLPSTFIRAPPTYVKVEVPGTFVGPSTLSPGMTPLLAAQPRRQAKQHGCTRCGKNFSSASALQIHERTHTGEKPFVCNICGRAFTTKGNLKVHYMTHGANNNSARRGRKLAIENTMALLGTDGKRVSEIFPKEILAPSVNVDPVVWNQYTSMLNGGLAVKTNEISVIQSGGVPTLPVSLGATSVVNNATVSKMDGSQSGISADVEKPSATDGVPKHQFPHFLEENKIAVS
Setting: 8-mer, flanks averaged, mean of replicates
Sequence | E-score
GCTAGACA | 0.0602
TAGCGCTA | 0.0304
CCCCTCCG | -0.233
CTAGTGGC | -0.134
CCTCTTAA | 0.0731
CTCATATC | 0.109
AACATGGG | 0.025
GCTTCGGA | -0.0249
CTAGTTGC | -0.0239
CGGCCTTC | -0.259
AGGGTTCC | -0.168
ATTATCTG | 0.286
AAATTTCT | 0.248
AATGTCCC | -0.0532
CGCCTGAA | -0.115
CAAACACG | 0.0319
GAAAGTTC | -0.033
AAGGCGAT | -0.00798
CTTACTTA | 0.082
CATTGACG | 0.0915
GGACTGGA | -0.0822
GGACTTTA | 0.141
CGTGTAAC | 0.0492
ACTATCTA | 0.19
AGTGTTAG | 0.0373

Block 3 — technique: RNA Bind-n-Seq; form: RNA; medium: in vitro; tested at: 365 nM; baseline: no-protein control; direction: higher = stronger binding
Target: RNA binding protein fox-1 homolog 2, RRM domain, GST-SBP tag (RBFOX2, Homo sapiens, UniProt O43251-10, residues 100-194)
Setting: natural RNA segment, single round, ends assumed
Residues (chain): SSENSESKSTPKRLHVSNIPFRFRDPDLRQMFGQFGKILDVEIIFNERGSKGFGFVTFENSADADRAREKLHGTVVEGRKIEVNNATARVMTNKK
Sequence | RBNS enrichment (R)
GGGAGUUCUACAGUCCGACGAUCCCUUCCUGGGAUGUCAGCUCCAGCACUGCCAGCCACCCCCACUGCUCUCUUUGGGACCUGGCCGUGCUUCCUGCUCGUAUGACUACCAGGGGCCAUAUCUGUAUUAACUGUGGAAUUCUCGGGUGCCAA | 0.495
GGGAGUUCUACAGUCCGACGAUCUAUUUAUUUAAAGUGGAAAUUCUAAGCCUUCCAGUAUAUACCCUUGUCAUGAGAAAAGAGGUACAUGGUGAUCCCCAAGAGAACUCAAGCCUUAUUCCUCACACACUACAUGGAAUUCUCGGGUGCCAA | 0.326
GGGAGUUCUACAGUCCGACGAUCGCUCGAAUGGAAAUGUUCUUGUUUUUUACAUCAUUACUUCAGCAAUUUCAUUUGCAUUUUCCACAUGAACUAGUUCCAAAUCUGAAGCCCAGGUUGGGCAUGACAUUACAUGGAAUUCUCGGGUGCCAA | 0.599
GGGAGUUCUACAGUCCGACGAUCUUAUUAUAAGGGAUUUGUGAUGUCUGUAAAGUGUAACCUAGGAAAGAUAAUUCAACCAUCUAAUCAAAAUGGAUCUGGAUUACUAUGUAAAUUCACAGCAGUAAGAUAAUUGGAAUUCUCGGGUGCCAA | 0.353
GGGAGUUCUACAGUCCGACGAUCUGUAAUUAUCCUCUGGUGAUGCUGUUUCUCGUUAGUGGCAGUAGUGCCUCCGUCUCCUAGUGAUAAUGCUCCAAGUCUAUGAACUGUUAAAUCAGCAUUCAUUUUAAGAAUGGAAUUCUCGGGUGCCAA | 0.47
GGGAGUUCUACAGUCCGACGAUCAGGCAGUGACAGUGAACUGUAAAUACCACAUGUGAGUUUACCUGGAUCUGUGCAUUUUGUGCCUUAUUCACUCGAGUGGUAGAAGUUCCGCGGUAUGUUGAGUGUUUCCAUGGAAUUCUCGGGUGCCAA | 0.419
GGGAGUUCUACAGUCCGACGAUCGAAGCCUCCCUCCCUCCCUCUGCCUCCCUUCCCCAGGACACCAAGAGCGCCCUCUCCUGAGCCCUGGCAGACCGACUGCAGGUAGCAGGAUUGCAGGACCCUCUGCCUGGUGGAAUUCUCGGGUGCCAA | 1.19
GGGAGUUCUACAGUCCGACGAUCUGACCAGUCUGCCUGCUCCUUACUAUAAUUGUGAGGAUUUGUUACUGGAACAGUACAUGGAGGCCUGACCUUGUGGGGGCACAGGGUGGAACCUUAGCUGAAUAUAGUGUUGGAAUUCUCGGGUGCCAA | 1.82

Block 4 — technique: RNA Bind-n-Seq; form: RNA; medium: in vitro; tested at: not given; baseline: input RNA pool; direction: higher = stronger binding
Target: RING finger protein unkempt homolog, zinc fingers 1-6, GST-SBP tag (UNK, Homo sapiens, UniProt Q9C0B0, residues 30-357)
UniProt Q9C0B0, sequence (30-357, looked up): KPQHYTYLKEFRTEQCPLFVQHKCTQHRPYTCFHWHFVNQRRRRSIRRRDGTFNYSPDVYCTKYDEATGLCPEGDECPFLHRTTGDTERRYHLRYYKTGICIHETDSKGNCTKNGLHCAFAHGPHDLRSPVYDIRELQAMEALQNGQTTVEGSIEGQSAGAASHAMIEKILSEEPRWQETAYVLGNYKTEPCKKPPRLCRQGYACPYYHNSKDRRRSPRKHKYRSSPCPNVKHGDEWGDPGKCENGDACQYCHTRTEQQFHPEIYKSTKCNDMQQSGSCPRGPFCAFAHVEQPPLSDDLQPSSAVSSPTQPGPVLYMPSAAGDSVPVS
Setting: RNA with constant flanks, human-mouse chimeric sites, ends assumed
Sequence | bound/input enrichment [ratio]
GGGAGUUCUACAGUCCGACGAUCAACGUGGAGUUGAGUUCCUUGGCCCGGCUUCCCAGCUUAAAUAAACUCCGGAAGUUGGAACUUAGUGACAAUAUAAUUUCUGGAGGCUUGGAAGUCCUGGCAGAGAAAUGUCCAAAUCUUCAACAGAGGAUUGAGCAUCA | 0.146
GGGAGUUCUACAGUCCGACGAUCCUGUGACUGAUGGCAGCUACCUGAGUGUUCAGAUGGGUUGACUCCCUCUCCUUGCCUGAACCCCCCCCCACUGCCCCCCCAUCCCCCAGUGUCGGCUGAGAUGUUGCCUCUGCACGGUUCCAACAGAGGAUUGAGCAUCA | 0.44
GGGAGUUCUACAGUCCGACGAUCCAGGGCAUCAUCUCUCGUGCUGUUAGACACCUGUUCAAGAGUAUUGAUGAGAAAAAGACCUCAGCGAUUAAAAACGGGCUGCCCCCUCCAGAUUUUAAAGUGAAUGCCCAGUUCCUAGAGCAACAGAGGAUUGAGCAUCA | 0.348
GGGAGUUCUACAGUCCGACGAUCUCGGAUGCUGUGCUGGGUCACUUUUCAUAUCCUGAUCCUUCACAGUGGACAGAUGAAGAACUGGGAAUCCCUCCUGAUGACGAGGACUGACACUGUAAACUCUCUGGCACUCUGUACGCACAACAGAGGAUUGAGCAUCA | 0.433
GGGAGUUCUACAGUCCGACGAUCGUGACAGGUGUUAAGAUUUCCCCUCAGCAAAGAAGUGCAGUAGUCACCAUAAUUCCAUCUGUGGUGAAUGCCAAUCAGAUUGUGGAGCUGGUCCCAGACCUCAGUUUAGACAUGGGAACUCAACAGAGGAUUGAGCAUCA | 0.276
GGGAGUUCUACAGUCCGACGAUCUCCCAAAUCCAGCAGCUAGAAGGAGCCUUGAGACAAAGCCUGGAAAUACAGGGAAGGCAAUAGCUUUGUACAUUGGUUUACAUUUUUUCCCCCUGUGGAUUUUUCUAGAGGUCAUAGUGCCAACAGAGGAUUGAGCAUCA | 1.61
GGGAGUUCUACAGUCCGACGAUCAUAGAUGAAAUUGAUGUAGAUCAGGAAGGAAUUGCUGAAAUGAUCCUGGAUGAAAAUGCUAUAGCUCAGGUCCCACGCCCUGGCACAUCUUUGAAGCUCCCUGGCACUAACCAAACAGGACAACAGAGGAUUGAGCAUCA | 0.478
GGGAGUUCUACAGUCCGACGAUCUCAACUGACAACAUCAAAUACCAGCCUAAAGGGGGGCAGGUACAAAUUGUUACUAAGAAAAUAGACCUAAGCCAUGUGACAUCCAAAUGUGGCUCUCUGAAGAACAUCCGCCACAGGCCACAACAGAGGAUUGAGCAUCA | 0.362
